Assay results from different studies.
± gives the spread as reported.

Structure (SMILES)	organism	assay	system	setting	how to read	endpoint	result
Cc1[nH]nc(C(F)(F)F)c1Cc1sc2c(c1C(=O)N1C[C@](C)(O)CO1)c(=O)n(C)c(=O)n2C(C)C	human coronavirus OC43	virus-induced cell killing	MRC-5	screen	–	maximum inhibition	15.1%
CNC(=O)c1c(N(C)N=O)ncn1C	Salmonella typhimurium	plate incorporation	TA1537, water	500 µg/plate, without S9	–	revertant colonies per plate	11.3 ± 3
CC(=O)N1CCC(C(=O)N2CCN3C(=O)c4cc(-c5ccccc5)ccc4NC(=O)C3C2)CC1 (centres unmarked)	Salmonella typhimurium	–	TA1537	158 µg/plate	–	revertants per plate	7.5
O=[N+]([O-])c1ccc(N2CCC(NCCC(O)c3ccc(F)c4ccccc34)CC2)c(C(F)(F)F)c1 (centres unmarked)	Salmonella typhimurium	SOS/umu test	TA1535/pSK1002, TGA medium	0.000488 mg/mL, 4 h, without S9	–	survival	112%
N#C[C@@]1(n2ccc(N)nc2=O)O[C@H](CO)[C@@H](O)[C@H]1O	Salmonella typhimurium	–	TA100	100 µM, without S9, unit not given	reference: control	viability	86.9
COCCN(CCOC)N=O	Salmonella typhimurium	mutagenicity, Ames plate incorporation	TA1537	5000 µg/plate, 3 d, without S9, methanol	–	revertant colonies per plate	7.7 ± 4
COc1cccc(-c2n[nH]c(SCc3ccccn3)n2)c1OC	Salmonella typhimurium	Ames test, preincubation	TA1535	0.13 mg/plate, without S9	–	revertant colonies per plate	15
O=[N+]([O-])c1ccc(NC2CCNCC2)c(C(F)(F)F)c1	Salmonella typhimurium	genotoxicity, SOS/umu test	TA1535/pSK1002	0.125 mg/mL, 4 h, with S9, full range	–	induction factor	0.7
O=C(O)Cc1ccccc1Nc1c(Cl)cccc1Cl	human coronavirus OC43	virus-induced cell killing	MRC-5	screen	–	maximum inhibition	17.7%
CC(C)N(N=O)C(C)C	Salmonella typhimurium	mutagenicity, Ames plate incorporation	TA98	150 µg/plate, without S9, methanol	–	revertant colonies per plate	43.7 ± 7
O=[N+]([O-])c1ccc(N2CCN(CCC(O)c3ccc(F)cc3)CC2)c(C(F)(F)F)c1 (centres unmarked)	Salmonella typhimurium	SOS/umu test	TA1535/pSK1002	0.031 mg/mL, 4 h, without S9, full range	–	survival	26.4%
CN(N=O)c1ccc(F)cc1	Salmonella typhimurium	mutagenicity, Ames plate incorporation	TA1535	5000 µg/plate, 3 d, without S9, methanol	–	revertant colonies per plate	13.7 ± 2
OC(CCN1CC=C(c2ccc(F)cc2)CC1)c1ccc(F)c2ccccc12 (centres unmarked)	Salmonella typhimurium	genotoxicity, SOS/umu test	TA1535/pSK1002	0.016 mg/mL, 4 h, with S9, full range	–	induction factor	1
Cc1cc(C(=O)NC(C)(C)COc2cccc3c2C(N)=NS(=O)(=O)N3)cc(C)n1	Salmonella typhimurium	Ames test, confirmatory	TA100	3333 µg/plate	reference: solvent control	revertant ratio	0.9

Some of these lines once more:
Structure (SMILES)	organism	assay	system	setting	how to read	endpoint	result
CC(=O)N1CCC(C(=O)N2CCN3C(=O)c4cc(-c5ccccc5)ccc4NC(=O)C3C2)CC1 (centres unmarked)	Salmonella typhimurium	–	TA1537	158 µg/plate	–	revertants per plate	7.5
